Measured values collected from several papers.
A part holds a random share of what one study measured.

Set 1
Target: RING finger protein unkempt homolog, zinc fingers 1-6, GST-SBP tag (UNK, Homo sapiens, UniProt Q9C0B0, residues 30-357)
Chain of UniProt Q9C0B0 (30-357, looked up): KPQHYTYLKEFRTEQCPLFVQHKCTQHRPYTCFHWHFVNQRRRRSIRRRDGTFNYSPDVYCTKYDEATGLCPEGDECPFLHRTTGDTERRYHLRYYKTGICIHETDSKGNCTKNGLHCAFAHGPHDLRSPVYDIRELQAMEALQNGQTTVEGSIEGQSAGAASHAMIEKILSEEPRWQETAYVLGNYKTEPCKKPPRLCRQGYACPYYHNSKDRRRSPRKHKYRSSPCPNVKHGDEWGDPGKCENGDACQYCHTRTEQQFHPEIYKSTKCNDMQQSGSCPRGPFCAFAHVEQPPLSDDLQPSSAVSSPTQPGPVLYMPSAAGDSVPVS
Technique: RNA Bind-n-Seq
Molecule type: RNA
Sample: in vitro
Tested at: not given
Notes: RNA with constant flanks, human and mouse sites, ends assumed
Reference: input RNA pool
Direction: higher = stronger binding
All sequences stand within: GGGAGUUCUACAGUCCGACGAUC … CAACAGAGGAUUGAGCAUCA
| Oligonucleotide | bound/input enrichment |
| --- | --- |
| UUCUUCACCCGUAACCAUCUGCCUGUACCUAACCUGGACCCACACACCUAUCGCUUACAUGUAGUAGGGGCACCUGGAGGUCAGUCACUGUCUCUGUCCUUGGAUGAUUUGCAUAAGUUU | 0.244 ratio |
| UCUCUAAAUCCUGAAUUUAACAAAGCAGUGAUCAGAGUGAAUGUAUUUCGAGAACACAGGCAGACUAUUCAGUAUAUACAUCCUGCAGAUGCUGUGAAGCUGGGCCAGGCUGAACUAGUU | 0.162 ratio |
| AUGGAACAUGGUGUAAAACCUCACAGUAAACAUCUUACAGAGUAUUUUGCCUUCCUUUACGAAUUUGCAAAAAUGGGUGAAGAAGAGAGCCAAUUUUUGCUUUCAUUGCAAGCUAUAUCU | 0.129 ratio |
| CUUGUGCACGCCCCACCUGUGCAUCUGGGAAUCCCAUCCCUGCAUUCAUUCAUCAAGAAGCACAGUCCUCAGGUUGGCCCUGGCUUAGAGAAAGAGGACAAGGCCGACUCAGACCUUGAG | 0.332 ratio |
| UCUACCAUCCCCUCCCCUCCCCACCCCAUCCAUUAAUAUUAUUCUUUUGAAGAUUCUUCGUUGUCAAGCCGCCAAAGUGGAGAGUGCGAUUGCAGAAGGGGGUGCUUCUCGUUUCAGUGC | 0.948 ratio |
| GACAGAACAGAGAUUUGUGUGCUCAUCUUAAGAGCCAGAGCCAUAUAAGCAUCUUGGGAAAGCAAGUUUGAACCAGCUGCUGGUGUAAUGUACAGUUAUAUUUGUCUAUAAAUGGAGCUG | 0.373 ratio |
| AUCCAGUACUCCAAUCACAAAGAACUAAAGACAGAUAAUACAUUAAACCAACGUGCGCAAGUAGUUCUUCAAGCUGUGACAGCGGUCCAGACAGCAAAUACACCUCUUAGUGGCACCACA | 0.475 ratio |
| GUCAACUAUGAAGAAUUCGUACAGAUGAUGACUGCAAAAUGAAGACCUACUUUCAACUACUUUUCCCCCUCUAGAAGAAUCAAAUUGAAAUCUUUUACUUACCUCUUACAAAAAAAAGAA | 2.17 ratio |
| AUUACUGUCUUGCUGAUCUUGCAUCUUUAAUGGAUAAAACAUUUGAGAGAAAGUUGCCUGUUAGUUCUUUAACAAUAUCACGGCUUAUAGACAACAUUUCCUCUCGGGAAGAGAUAGAUC | 0.488 ratio |
| CUAGAUGUUUCAUAUGAACCAAUGAUAGUGAAGGAAGCUCGAUAUAUUGCCAUAACAAUGAUGAAGGUUUAUGAAAAUUAUUCAUUUGAAGAACUACGUUUUGCAUCACCAACUCCUAAG | 0.377 ratio |
| UCAAAAAUGUAAAGCUGAAAAUAAAACCAGGGUUUCUAUUUAUCUGUUUUUUUUUUUAAUGUUGCACUUGUAGUUUCAUUACAAAAGAUCAGAUCAUGAAAGGCAGUAACUCUCCAGGAC | 0.386 ratio |

Set 2
Target: Prothrombin, mature alpha-thrombin (F2, Homo sapiens, UniProt P00734)
Technique: aptamer microarray, sandwich
Molecule type: DNA with 2'F-ANA
Sample: in vitro
Tested at: 200 nM
Notes: whole 15-mer aptamer, many near background
With: Cy3 exosite-II aptamer, 400 nM
Direction: higher = stronger binding
Oligonucleotide: GGTTGGTGTGGTTGG
| Modification | mean fluorescence intensity [a.u.] |
| --- | --- |
| 2'F-ANA at 1 3 6 7 9 10 11 12 13 14 | 59 |
| 2'F-ANA at 2 4 5 8 9 12 14 | 53.2 |
| 2'F-ANA at 1 3 5 6 7 10 12 13 14 | 71 |
| 2'F-ANA at 1 3 8 9 10 11 12 13 14 15 | 69.9 |
| 2'F-ANA at 1 3 5 6 7 10 11 13 14 | 46.7 |
| 2'F-ANA at 2 6 9 10 11 13 14 15 | 75.3 |
| 2'F-ANA at 1 4 5 6 7 9 10 11 12 15 | 49.1 |
| 2'F-ANA at 1 2 3 4 9 10 11 12 | 97.2 |
| 2'F-ANA at 5 7 8 9 10 12 14 | 45.3 |
| 2'F-ANA at 1 3 8 9 10 12 14 15 | 107 |
| 2'F-ANA at 3 7 8 9 12 13 | 1200 |
| 2'F-ANA at 1 2 4 11 12 13 15 | 178 |
| 2'F-ANA at 1 2 6 7 12 13 14 | 97.5 |
| 2'F-ANA at 2 4 5 8 10 11 14 15 | 53.3 |
| 2'F-ANA at 1 2 3 5 6 11 13 | 50.8 |
| 2'F-ANA at 1 2 4 5 7 9 13 14 | 45.3 |
| 2'F-ANA at 1 4 6 12 13 | 183 |
| 2'F-ANA at 1 2 3 4 5 6 7 10 11 13 14 | 48.5 |
| 2'F-ANA at 1 2 3 6 8 9 11 12 14 | 78.1 |
| 2'F-ANA at 1 2 4 7 9 10 12 14 | 61.2 |
| 2'F-ANA at 1 5 6 8 11 12 13 15 | 152 |

Set 3
Target: Sal-like protein 4, full length isoform B (SALL4, Homo sapiens, UniProt Q9UJQ4-2, residues 1-616)
Technique: universal PBM
Molecule type: double-stranded DNA, one strand shown
Sample: in vitro
Tested at: not given
Notes: 8-mer, flanks averaged, mean of replicates
Direction: higher = stronger binding
| Oligonucleotide | E-score |
| --- | --- |
| AACGCGTT | -0.0312 |
| GAAGTCAA | -0.0645 |
| AACGAGGT | -0.142 |
| CTGACGGC | -0.256 |
| CACGTAAG | 0.0889 |
| AGGACTCA | -0.0385 |
| AAGAAATG | 0.156 |
| AACATGGA | 0.213 |
| GTCTAGCA | 0.008 |
| AGACGGGA | -0.173 |
| ACTATGGC | 0.018 |
| GCAGTAGA | -0.119 |
| ATCGATTA | 0.175 |
| ATTGGTCA | 0.128 |
| CCGCGTAA | -0.0901 |
| ACATCCTG | 0.183 |
| GTGTCCCA | -0.297 |
| ATCGTAAA | 0.272 |

Set 4
Target: Interferon regulatory factor 3, full length, phosphomimetic (IRF3, Homo sapiens, UniProt Q14653, residues 1-427, S386D/S396D/S398D/S402D/T404D/S405D)
Technique: protein-binding microarray
Molecule type: double-stranded DNA, one strand shown
Sample: in vitro
Tested at: 2540 nM top
Notes: 60-bp whole probe
With: salmon DNA 0.4 mg/ml
Reference: random background probes
Direction: higher = stronger binding
All sequences stand within: GCCTAGCAC … GTCTTGATTCGCTTGACGCTGCTG
Residues (chain): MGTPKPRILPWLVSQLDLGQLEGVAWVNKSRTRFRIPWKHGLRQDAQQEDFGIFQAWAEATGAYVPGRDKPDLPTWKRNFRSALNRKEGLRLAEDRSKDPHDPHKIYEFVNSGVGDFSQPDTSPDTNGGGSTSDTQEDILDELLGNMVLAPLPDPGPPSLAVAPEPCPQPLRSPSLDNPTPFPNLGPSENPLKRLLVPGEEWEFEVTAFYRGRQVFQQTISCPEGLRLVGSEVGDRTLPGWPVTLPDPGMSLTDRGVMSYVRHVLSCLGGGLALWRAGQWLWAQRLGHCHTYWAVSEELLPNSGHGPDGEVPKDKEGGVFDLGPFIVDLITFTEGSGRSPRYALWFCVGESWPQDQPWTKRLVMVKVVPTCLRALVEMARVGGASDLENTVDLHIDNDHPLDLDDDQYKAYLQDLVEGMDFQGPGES
| Oligonucleotide | fitted relative affinity |
| --- | --- |
| GACGAACTGGGGTATTGAGACGTGCTA | -0.534 z-score |
| GACGATTTCTGGTATCGAGACGTGCTA | 1.04 z-score |
| TCAGCTCTGTGCATAGGACTGTGCTAG | -0.24 z-score |
| GACGGTCTCCGTATCGGGACGTGCTAG | 2.3 z-score |
| GACGGTATCGGGTATCAGGACGTGCTA | 2.19 z-score |
| ATGGCTCTCTGGACTGTGTGTGTGCTA | -1.26 z-score |
| TTAGGACTGGGTTACGGTTAGTGCTAG | -0.307 z-score |
| GACGATTTCGGGGTTCGAGACGTGCTA | 1.19 z-score |
| TTAGGTATCAACTATCGGTTAGTGCTA | 0.667 z-score |
| TTAGATTTCAGATTGGATTAGTGCTAG | 1.51 z-score |
| TCACTTCTCTAACCTCTCACTGTGCTA | 1.7 z-score |
| TTCGAACTGGGGTTTCGATTAGTGCTA | 1.6 z-score |
| GAGGGTTTCGGGTTTCGGGACGTGCTA | 4.35 z-score |
| TTAGGTTTCGACTTTCGGCTAGTGCTA | 3.24 z-score |
| CACGGTTCCCTTTTCCTGACGTGCTAG | 5.57 z-score |
| TTAAGACTGGACTTTCGGTTAGTGCTA | 1.24 z-score |
| GACGTTATCAGTATCGAGACGTGCTAG | 1.54 z-score |
| TCCTCTTTCACTGGTCCTCATGTGCTA | 1.72 z-score |
| GACGACTTCGGGTTTCGAGACGTGCTA | 0.524 z-score |
| GACGGTTTCCCTTTCCTGACGTGCTAG | 9.5 z-score |
| TTAGAACAGGGGACTGGATTAGTGCTA | -0.508 z-score |
| TTAGATATCGGGACAGGATTAGTGCTA | 0.113 z-score |
| GACGAACTGGGGTATCGAGAAGTGCTA | -0.419 z-score |
| TTAGGACTGCATATCCTTTAGTGCTAG | 0.042 z-score |
| TTAGGTCTCGGTTGCGGTTAGTGCTAG | 1.09 z-score |

Set 5
Target: RNA binding protein fox-1 homolog 2, RRM domain, GST-SBP tag (RBFOX2, Homo sapiens, UniProt O43251-10, residues 100-194)
Technique: RNA Bind-n-Seq
Molecule type: RNA
Sample: in vitro
Tested at: 365 nM
Notes: natural RNA segment, single round, ends assumed
Reference: no-protein control
Direction: higher = stronger binding
All sequences stand within: GGGAGUUCUACAGUCCGACGAUC … UGGAAUUCUCGGGUGCCAA
Construct (chain): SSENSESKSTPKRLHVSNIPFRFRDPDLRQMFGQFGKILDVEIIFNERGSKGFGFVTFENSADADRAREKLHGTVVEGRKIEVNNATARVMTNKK
| Oligonucleotide | RBNS enrichment (R) |
| --- | --- |
| UAAUUUUUGUUUAUUUAUUGUGAGCUUUUUACUUUAAGAUUUUACAUGAGUAAUCAAAAUUAAAUUAUAGCAUAAUGAAAUUAGACUCUUAACAGGUACGGCACACACAA | 0.847 |
| GGGCUGGCUCUGAAGCCAAGCCUCUUCUUACUUCACCCGGCUGGGCUCCUCAUUUUUACGGGUAACAGUGAGGCUGGGAAGGGGAACACAGACCAGGAAGCUCGGUGAGU | 0.325 |
| ACAGCUCACAGCCAGCUGUUAGGACCCCACCCUUCUCCCUUUAUUGUGGAGGUGACUCACAGCAGACUGACAGUGGUCAGGCUGAGCUUUCUGCUAAGGUGGUGAGGUCG | 0.26 |
| UGGUAUGUAUGGUCUGUGUCUUUGGUGAAAUGCAGACUAGAUACCUAAGAACCAGCUUCCCAGUGGGGCUCCCUACUUUGUGUGCACCUUGGGCAGUGCCUCUGGGCACU | 0.453 |
| UUUCAGGAGAGCCUAUUGCCCUACGUGAGCAUUAGGUAAAACUCUUAAAUUUCUGUUUACAUUGAAAGCUGUUCAUUCAUGGCGCCCCCCCCCCCCCAAUCAUAAGACCA | 0.352 |
| GUAAGUCAGGAUUGGAGUAAGCUGGAAAAGUAUGUUUAGGCAAAUCUUGGAGAAAACCAACCAUAAACUUACAGCUCUAAAAUUCAGAAAGCCCUAAAAUUUCAAACACU | 0.326 |
| UGAUUAUGAAAGAGUGAAUUUUUCUGGACAGAAAAGGGAGAGCUACCAAAUUGUUUUUUUCUUUUUAAAAGGAAGUUUAAUGUCCGUUGUAUCACAAAUCAGUGUUAAAA | 0.503 |
| CAGCGUCUAGCAGUUGGGUCCUCACUUUUACUCCAAUUGUGAAAAUAGCCCACGUACCCUCGCAGUGUCCAGUAGGGAUCCCAGAGGCACAUAACCAAGAAAGGAUUUUG | 0.36 |
| CUCCCUCGUGGGCCAGUGAAAAUAGACUGUAGGUCCUCAGAGCCUUCAGAGAUGAUCCAGCCCAAACCCCAUUUUGCAGAGAGGAAAACUGAGGCCUAGAAGGGAGGAGU | 0.426 |
| GGGAUAGACAGACAGAGACCAGGUCUGGGACUAGAGCAUCUGCAGCUUCCGUGGGACAGAAGCUUUGGGUAGCUCUGAGUGACAGCUGCUUGUAUUCUCGGACCUGGACU | 0.856 |
| CACUGUUGGAGCUACUGCAAAUGCUAUAUUGCACUGUGACCGAGAACUUUUAAGAGGAUAGAAUACAUGGAAACGCAAAUGAGUAUUUCGGAGCAUGAAGACCCUGGAGU | 6.26 |
| GGCGUGGGGAGCUGGGCCCCAACAUGGCGGGUCUGCAGAAGAUCAGCAGCUUCUUACCUGUGCGGGAGCGAAAAAGCUGGGCUUCAACAUGGCAGGUCUGUAGGGGUCAG | 0.251 |
